# Published values collected from several papers.
# Every numbered part comes from another study and shows a few of its results, in no order.
# UniProt Q13153, sequence (whole entry, looked up): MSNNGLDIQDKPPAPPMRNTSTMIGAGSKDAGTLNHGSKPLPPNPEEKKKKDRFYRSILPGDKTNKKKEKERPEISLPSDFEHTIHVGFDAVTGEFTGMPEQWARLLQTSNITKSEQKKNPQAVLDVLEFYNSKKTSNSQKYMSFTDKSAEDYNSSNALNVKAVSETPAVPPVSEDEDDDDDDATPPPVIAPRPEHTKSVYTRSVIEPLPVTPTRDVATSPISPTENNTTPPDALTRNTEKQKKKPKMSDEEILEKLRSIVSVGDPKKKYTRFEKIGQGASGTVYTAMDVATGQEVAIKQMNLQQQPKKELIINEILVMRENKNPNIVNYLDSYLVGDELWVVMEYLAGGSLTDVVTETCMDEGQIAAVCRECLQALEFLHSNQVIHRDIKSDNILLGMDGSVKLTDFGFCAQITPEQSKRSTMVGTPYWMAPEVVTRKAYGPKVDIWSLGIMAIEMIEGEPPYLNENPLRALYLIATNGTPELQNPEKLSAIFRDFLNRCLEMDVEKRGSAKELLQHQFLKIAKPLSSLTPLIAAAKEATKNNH
# UniProt Q9HBY8, sequence (whole entry, looked up): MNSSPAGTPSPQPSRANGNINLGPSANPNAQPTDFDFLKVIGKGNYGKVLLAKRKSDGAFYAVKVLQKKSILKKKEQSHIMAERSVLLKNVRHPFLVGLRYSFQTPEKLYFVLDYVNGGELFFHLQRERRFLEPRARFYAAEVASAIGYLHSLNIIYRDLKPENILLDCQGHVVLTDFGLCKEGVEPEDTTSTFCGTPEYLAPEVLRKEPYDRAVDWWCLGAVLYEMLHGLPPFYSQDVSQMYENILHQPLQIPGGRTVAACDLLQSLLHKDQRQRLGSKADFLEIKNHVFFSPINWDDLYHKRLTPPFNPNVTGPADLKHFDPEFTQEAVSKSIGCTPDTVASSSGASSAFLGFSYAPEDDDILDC
# UniProt P11362, sequence (whole entry, looked up): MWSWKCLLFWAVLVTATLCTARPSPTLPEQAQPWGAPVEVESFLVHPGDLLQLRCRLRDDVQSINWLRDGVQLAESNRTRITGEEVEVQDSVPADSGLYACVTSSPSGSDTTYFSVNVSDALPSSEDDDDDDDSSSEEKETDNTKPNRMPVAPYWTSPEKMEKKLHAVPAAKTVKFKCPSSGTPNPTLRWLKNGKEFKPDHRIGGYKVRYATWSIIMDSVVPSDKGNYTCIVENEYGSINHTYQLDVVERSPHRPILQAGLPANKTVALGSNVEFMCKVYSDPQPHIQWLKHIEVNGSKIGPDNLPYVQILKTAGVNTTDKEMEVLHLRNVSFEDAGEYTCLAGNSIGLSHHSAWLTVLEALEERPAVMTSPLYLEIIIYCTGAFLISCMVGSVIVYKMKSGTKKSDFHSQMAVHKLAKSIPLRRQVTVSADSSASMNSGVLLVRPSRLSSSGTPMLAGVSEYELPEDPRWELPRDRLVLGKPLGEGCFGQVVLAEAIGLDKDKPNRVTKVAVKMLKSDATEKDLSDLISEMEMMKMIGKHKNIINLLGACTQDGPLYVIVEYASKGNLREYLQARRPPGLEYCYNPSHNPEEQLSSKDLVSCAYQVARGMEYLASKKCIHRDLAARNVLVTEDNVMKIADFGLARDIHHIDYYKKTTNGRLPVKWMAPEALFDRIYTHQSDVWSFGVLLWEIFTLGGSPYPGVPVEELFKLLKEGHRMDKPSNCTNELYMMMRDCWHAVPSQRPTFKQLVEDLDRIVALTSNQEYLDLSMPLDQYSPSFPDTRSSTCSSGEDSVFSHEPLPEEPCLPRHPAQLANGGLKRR
# UniProt O75582, sequence (whole entry, looked up): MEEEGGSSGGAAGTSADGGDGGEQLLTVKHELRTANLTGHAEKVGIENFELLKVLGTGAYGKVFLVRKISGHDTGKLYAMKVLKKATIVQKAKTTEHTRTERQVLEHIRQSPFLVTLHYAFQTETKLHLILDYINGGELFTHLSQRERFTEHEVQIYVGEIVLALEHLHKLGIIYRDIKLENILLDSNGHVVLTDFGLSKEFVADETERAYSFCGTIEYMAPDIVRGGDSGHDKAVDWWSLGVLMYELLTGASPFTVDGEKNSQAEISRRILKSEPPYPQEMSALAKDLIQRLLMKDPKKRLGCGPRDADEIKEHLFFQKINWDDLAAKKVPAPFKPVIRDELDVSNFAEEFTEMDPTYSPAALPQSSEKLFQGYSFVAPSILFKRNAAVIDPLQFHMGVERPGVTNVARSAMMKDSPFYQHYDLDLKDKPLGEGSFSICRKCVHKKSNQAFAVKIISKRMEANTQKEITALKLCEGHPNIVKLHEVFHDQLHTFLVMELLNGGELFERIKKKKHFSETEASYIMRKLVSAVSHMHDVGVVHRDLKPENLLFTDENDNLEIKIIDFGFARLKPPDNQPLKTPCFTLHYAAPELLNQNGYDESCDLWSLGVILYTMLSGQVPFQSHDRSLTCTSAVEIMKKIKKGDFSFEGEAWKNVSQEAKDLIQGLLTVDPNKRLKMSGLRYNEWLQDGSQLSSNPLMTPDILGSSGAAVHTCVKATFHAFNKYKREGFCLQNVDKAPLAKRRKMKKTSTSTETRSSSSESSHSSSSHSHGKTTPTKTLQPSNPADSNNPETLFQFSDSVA
# UniProt Q96GD4, sequence (whole entry, looked up): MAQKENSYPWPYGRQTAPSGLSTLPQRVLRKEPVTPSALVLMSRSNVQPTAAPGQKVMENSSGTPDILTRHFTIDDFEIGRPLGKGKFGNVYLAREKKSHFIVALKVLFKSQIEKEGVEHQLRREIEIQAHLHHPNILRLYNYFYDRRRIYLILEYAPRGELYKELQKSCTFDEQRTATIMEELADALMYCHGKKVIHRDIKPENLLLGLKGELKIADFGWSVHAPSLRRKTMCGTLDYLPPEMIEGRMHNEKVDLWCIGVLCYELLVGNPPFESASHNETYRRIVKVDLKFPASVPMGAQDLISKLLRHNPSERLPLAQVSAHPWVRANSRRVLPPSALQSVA
# UniProt Q13557, sequence (whole entry, looked up): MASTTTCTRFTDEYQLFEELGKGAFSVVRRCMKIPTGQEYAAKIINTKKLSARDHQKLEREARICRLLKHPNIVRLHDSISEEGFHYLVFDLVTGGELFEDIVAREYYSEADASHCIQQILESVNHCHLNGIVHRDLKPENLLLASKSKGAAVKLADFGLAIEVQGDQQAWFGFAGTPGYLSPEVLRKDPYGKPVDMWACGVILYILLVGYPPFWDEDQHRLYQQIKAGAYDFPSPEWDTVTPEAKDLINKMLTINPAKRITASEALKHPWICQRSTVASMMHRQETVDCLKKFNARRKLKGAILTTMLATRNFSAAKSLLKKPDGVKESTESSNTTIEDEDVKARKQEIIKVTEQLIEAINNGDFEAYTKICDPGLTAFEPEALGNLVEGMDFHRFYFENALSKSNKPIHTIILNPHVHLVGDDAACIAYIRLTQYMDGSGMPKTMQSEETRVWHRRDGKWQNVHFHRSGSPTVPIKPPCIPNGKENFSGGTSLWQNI
# UniProt Q13237, sequence (whole entry, looked up): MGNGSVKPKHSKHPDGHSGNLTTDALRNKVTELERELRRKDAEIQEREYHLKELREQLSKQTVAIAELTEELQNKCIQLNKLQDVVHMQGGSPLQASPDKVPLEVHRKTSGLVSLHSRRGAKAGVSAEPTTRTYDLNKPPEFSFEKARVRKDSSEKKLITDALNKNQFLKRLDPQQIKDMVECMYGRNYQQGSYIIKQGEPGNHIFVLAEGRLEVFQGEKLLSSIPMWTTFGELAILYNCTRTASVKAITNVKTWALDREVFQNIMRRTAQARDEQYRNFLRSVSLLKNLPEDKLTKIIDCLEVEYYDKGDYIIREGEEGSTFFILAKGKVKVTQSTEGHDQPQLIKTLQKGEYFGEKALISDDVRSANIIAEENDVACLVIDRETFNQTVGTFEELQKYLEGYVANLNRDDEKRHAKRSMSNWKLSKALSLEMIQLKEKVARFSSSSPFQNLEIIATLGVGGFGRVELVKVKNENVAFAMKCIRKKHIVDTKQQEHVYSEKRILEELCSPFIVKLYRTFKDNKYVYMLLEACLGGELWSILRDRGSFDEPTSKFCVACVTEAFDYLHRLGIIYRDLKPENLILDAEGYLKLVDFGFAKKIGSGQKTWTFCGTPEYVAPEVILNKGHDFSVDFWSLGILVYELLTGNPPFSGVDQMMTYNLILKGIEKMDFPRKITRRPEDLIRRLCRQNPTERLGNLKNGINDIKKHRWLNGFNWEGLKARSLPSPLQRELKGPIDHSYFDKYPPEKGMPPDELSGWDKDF

# Series 1
# Target: Protein kinase C zeta type (PRKCZ, Homo sapiens, UniProt Q05513)
# Read-out: enzyme activity
# Action: inhibitor
# Tested at: 0.5 µM
# Reference: control
# Target sequence (Q05513 1-592): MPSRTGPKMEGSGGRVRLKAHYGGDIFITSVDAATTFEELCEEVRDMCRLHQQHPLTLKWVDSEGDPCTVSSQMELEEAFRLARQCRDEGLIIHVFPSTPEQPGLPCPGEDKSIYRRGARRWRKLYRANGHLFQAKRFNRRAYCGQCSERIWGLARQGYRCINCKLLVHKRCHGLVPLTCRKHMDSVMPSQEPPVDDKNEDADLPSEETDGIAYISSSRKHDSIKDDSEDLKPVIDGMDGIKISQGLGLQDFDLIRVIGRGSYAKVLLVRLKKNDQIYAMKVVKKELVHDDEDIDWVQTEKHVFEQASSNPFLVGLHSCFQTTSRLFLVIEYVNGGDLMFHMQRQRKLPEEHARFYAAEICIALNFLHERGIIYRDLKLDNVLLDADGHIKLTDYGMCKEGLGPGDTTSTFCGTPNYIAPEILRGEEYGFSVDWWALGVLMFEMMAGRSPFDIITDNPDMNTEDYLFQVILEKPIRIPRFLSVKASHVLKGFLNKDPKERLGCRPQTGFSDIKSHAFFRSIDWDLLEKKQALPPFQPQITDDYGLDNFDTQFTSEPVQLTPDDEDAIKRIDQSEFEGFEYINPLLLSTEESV
Compound,remaining activity [%]
Cn1c2ccccc2c2c3c(c4c5ccccc5n(CCC#N)c4c21)CNC3=O,87
Cc1ccc(NC(=O)c2ccc(CN3CCN(C)CC3)cc2)cc1Nc1nc(-c2cccnc2)cs1,103
O=C(CCCc1ccc(-c2ccccc2F)cc1)Nc1ccc(O)cc1,116
O=c1c2ccccc2[nH]c(=S)n1CCN1CCC(=C(c2ccc(F)cc2)c2ccc(F)cc2)CC1,102
O=C(Nc1cccc(Nc2cc(Nc3cccc(C(F)(F)F)c3)ncn2)c1)C1CC1,104
CNC(=O)c1cc(Oc2ccc(NC(=O)Nc3ccc(Cl)c(C(F)(F)F)c3)cc2)ccn1,94.5
O=C1NC(=O)C(c2cn(CCCO)c3ncccc23)=C1c1cnccn1,88.5
Cc1cccc(-c2[nH]c(C(C)(C)C)nc2-c2ccc3c(c2)OCO3)n1,87.9
C#Cc1cccc(Nc2ncnc3cc(OCCOC)c(OCCOC)cc23)c1,92.3
O=C1NC(=O)C(c2cn(CCCn3ccnc3)c3ccccc23)=C1Nc1ccccc1,99.6
COc1ccc(OC)c2c(=S)c3ccccc3[nH]c12,99.4
NCCNc1ncc(C(N)=O)c(Nc2cccc(C(F)(F)F)c2)n1,85.5
COc1ccc(C(=O)Nc2sc3c(c2C(N)=O)CCCC3)cc1OC,89.3
Nc1[nH]nc2nc3ccccc3nc12,106

# Series 2
# Organism: Sarcocystis neurona
# Read-out: parasite growth
# Tested at: 10 µM
# Time: 96 h
# Notes: first screen
# Reference: untreated
Structure (SMILES),log2 fold change
CCC[C@@H]1C[C@@H](C(=O)N[C@@H]([C@H]2O[C@H](SC)[C@H](O)[C@@H](O)[C@H]2O)[C@@H](C)O)N(C)C1,-0.44
CN1[C@@H]2C[C@@H](OC(=O)[C@H](CO)c3ccccc3)C[C@H]1[C@@H]1O[C@@H]12,0.19
CC[C@H]1OC(=O)[C@H](C)[C@@H](O[C@H]2C[C@@](C)(OC)[C@@H](O)[C@H](C)O2)[C@H](C)[C@@H](O[C@@H]2O[C@H](C)C[C@H](N(C)C)[C@H]2O)[C@](C)(OC)C[C@@H](C)C(=O)[C@H](C)[C@@H](O)[C@]1(C)O,0.0135
COc1ccc(CC2c3cc(OC)c(OC)cc3CC[N+]2(C)CCC(=O)OCCCCCOC(=O)CC[N+]2(C)CCc3cc(OC)c(OC)cc3C2Cc2ccc(OC)c(OC)c2)cc1OC (stereo not drawn),-0.21
CC(=O)SCC(Cc1ccccc1)C(=O)NCC(=O)OCc1ccccc1 (stereo not drawn),0.11

# Series 3
# SMILES: COc1cc(C(=O)N2CCC(N3CCN(C)CC3)CC2)ccc1Nc1ncc2c(n1)N(C)c1ccccc1C(=O)N2C
target,read-out,action,technique,cell line,notes,EC50
"Ribosomal protein S6 kinase alpha-5 (RPS6KA5, Homo sapiens, UniProt O75582)",kinase–CDC37 interaction,,,,kinome plate 3@B12,> 10 µM
"Aurora kinase B (AURKB, Homo sapiens, UniProt Q96GD4)",kinase-HSP90-CDC37 interaction,,LUMIER,human cells,,> 10 µM
"Fibroblast growth factor receptor 1 (FGFR1, Homo sapiens, UniProt P11362)",kinase–CDC37 interaction,inhibitor,,human cells,kinome plate 1@C02,> 10 µM
"Tyrosine-protein kinase ABL1 (ABL1, Homo sapiens, UniProt P00519, E316D)",kinase-HSP90-CDC37 interaction,,LUMIER,human cells,,> 10 µM

# Series 4
# SMILES: O=C(Nc1cnc(Oc2ccc(F)cc2)nc1)N1CCc2ncccc2[C@@H]1c1ccc(F)cc1
# Read-out: cell-free assay
# Technique: competition with immobilised ligand
# Tested at: 1 µM
target,remaining binding
"Serine/threonine-protein kinase Sgk2 (SGK2, Homo sapiens, UniProt Q9HBY8)",79%
"Epidermal growth factor receptor (EGFR, Homo sapiens, UniProt P00533, A750P/del747-749)",86%
"cGMP-dependent protein kinase 2 (PRKG2, Homo sapiens, UniProt Q13237)",100%
"Serine/threonine-protein kinase PAK 1 (PAK1, Homo sapiens, UniProt Q13153)",71%
"Serine/threonine-protein kinase WNK4 (WNK4, Homo sapiens, UniProt Q96J92)",81%
"Calcium/calmodulin-dependent protein kinase type II subunit delta (CAMK2D, Homo sapiens, UniProt Q13557)",92%
"Tyrosine-protein kinase ABL1, phosphorylated (ABL1, Homo sapiens, UniProt P00519, Y253F)",100%

# Excerpt of the above (series 3):
target,read-out,action,technique,cell line,notes,EC50
"Ribosomal protein S6 kinase alpha-5 (RPS6KA5, Homo sapiens, UniProt O75582)",kinase–CDC37 interaction,,,,kinome plate 3@B12,> 10 µM
"Aurora kinase B (AURKB, Homo sapiens, UniProt Q96GD4)",kinase-HSP90-CDC37 interaction,,LUMIER,human cells,,> 10 µM
"Fibroblast growth factor receptor 1 (FGFR1, Homo sapiens, UniProt P11362)",kinase–CDC37 interaction,inhibitor,,human cells,kinome plate 1@C02,> 10 µM
"Tyrosine-protein kinase ABL1 (ABL1, Homo sapiens, UniProt P00519, E316D)",kinase-HSP90-CDC37 interaction,,LUMIER,human cells,,> 10 µM
